{"data": "Experimental data pooled from the literature", "organism": "Acinetobacter baumannii", "note": "Compare with care: the assays were run in different laboratories."}
{"SMILES": "CCCCCCCC(=O)N[C@@H](CCN)C(=O)N[C@H](C(=O)N[C@@H](CCN)C(=O)N[C@H]1CCNC(=O)[C@H]([C@@H](C)O)NC(=O)[C@H](CCN)NC(=O)[C@H](CCN)NC(=O)[C@H](Cc2ccccc2)NC(=O)[C@@H](CCc2ccccc2)NC(=O)[C@H](CCN)NC1=O)[C@@H](C)O", "assay": "broth microdilution", "system": "colistin-resistant isolates", "MIC": "1 to 2 µg/mL"}
{"SMILES": "CC[C@H](C)[C@H](NC(=O)[C@H](CC(C)C)NC(=O)[C@H](CCCNC(=N)N)NC(=O)[C@@H](N)CCCNC(=N)N)C(=O)N[C@@H](CC(C)C)C(=O)N[C@H](C(=O)N[C@@H](CCCCN)C(=O)N[C@H](C(=O)NCC(=O)N1CCC[C@H]1C(=O)N[C@H](C(=O)N[C@H](C(=O)N[C@@H](Cc1ccc(O)cc1)C(=O)N[C@@H](CCCCN)C(=O)N[C@@H](Cc1ccc(O)cc1)C(=O)N[C@@H](Cc1ccccc1)C(=O)N[C@@H](CCCCN)C(=O)N[C@@H](CCCCN)C(=O)N[C@@H](CCC(N)=O)C(=O)N[C@@H](CC(C)C)C(=O)N[C@@H](CC(C)C)C(=O)N[C@@H](CCCCN)C(=O)N[C@@H](CC(C)C)C(N)=O)[C@@H](C)CC)[C@@H](C)CC)[C@@H](C)O)[C@@H](C)O", "system": "KCCM 40203, Mueller-Hinton broth", "setting": "24 h", "MIC": "2 µM"}
{"SMILES": "N=C(N)NCCC[C@H](NC(=O)[C@@H](N)CCCNC(=N)N)C(=O)N[C@@H](Cc1c[nH]c2ccccc12)C(=O)N[C@@H](Cc1c[nH]c2ccccc12)C(=O)N[C@@H](Cc1ccccc1)C(=O)N[C@@H](CCC(N)=O)C(=O)N[C@@H](Cc1ccccc1)C(=O)N[C@@H](CCC(N)=O)C(=O)N[C@@H](Cc1ccccc1)C(=O)N[C@@H](CCCCN)C(N)=O", "assay": "broth microdilution, optical density", "MIC": "140 µM"}
{"SMILES": "CC[C@H](C)[C@H](NC(=O)CN)C(=O)NCC(=O)N[C@@H](C)C(=O)N[C@H](C(=O)N[C@@H](CC(C)C)C(=O)N[C@@H](CCCCN)C(=O)N[C@H](C(=O)N[C@@H](CC(C)C)C(=O)N[C@H](C(=O)N[C@H](C(=O)NCC(=O)N[C@@H](CC(C)C)C(=O)N1CCC[C@H]1C(=O)N[C@@H](C)C(=O)N[C@@H](CC(C)C)C(=O)N[C@H](C(=O)N[C@@H](CO)C(=O)N[C@@H](Cc1c[nH]c2ccccc12)C(=O)N[C@H](C(=O)N[C@@H](CCCCN)C(=O)N[C@@H](CCCNC(=N)N)C(=O)N[C@@H](CCCCN)C(=O)N[C@@H](CCCNC(=N)N)C(=O)N[C@@H](CCC(N)=O)C(=O)N[C@@H](CCC(N)=O)C(N)=O)[C@@H](C)CC)[C@@H](C)CC)[C@@H](C)O)[C@@H](C)O)C(C)C)C(C)C", "assay": "broth microdilution, MH medium", "system": "KCCM 40203", "setting": "16 h, 37 °C, growth inhibition over 99%", "MIC": "4 µM"}
{"SMILES": "CC[C@H](C)[C@H](NC(=O)[C@H](CC(C)C)NC(=O)[C@H](CCCNC(=N)N)NC(=O)[C@@H](N)CCCNC(=N)N)C(=O)N[C@@H](CCCNC(=N)N)C(=O)N[C@H](C(=O)N[C@@H](CC(C)C)C(=O)N[C@H](C(=O)NCC(=O)N1CCC[C@H]1C(=O)N[C@H](C(=O)N[C@H](C(=O)N[C@@H](Cc1ccc(O)cc1)C(=O)N[C@@H](CC(C)C)C(=O)N[C@@H](Cc1ccc(O)cc1)C(=O)N[C@@H](Cc1ccccc1)C(=O)N[C@@H](CCCCN)C(=O)N[C@@H](CC(C)C)C(=O)N[C@@H](CCC(N)=O)C(=O)N[C@@H](CC(C)C)C(=O)N[C@@H](CC(C)C)C(=O)N[C@@H](CCCCN)C(=O)N[C@@H](CCCCN)C(N)=O)[C@@H](C)CC)[C@@H](C)CC)[C@@H](C)O)[C@@H](C)O", "system": "ATCC BAA1605, Mueller-Hinton broth", "setting": "24 h", "MIC": "32 µM"}
{"SMILES": "CC[C@H](C)[C@H](NC(=O)CNC(=O)[C@H](CC(=O)O)NC(=O)[C@H](CCCNC(=N)N)NC(=O)[C@@H](NC(=O)[C@H](CC(N)=O)NC(=O)[C@H](CCCNC(=N)N)NC(=O)CNC(=O)[C@@H](NC(=O)[C@H](CCCCN)NC(=O)[C@H](CCC(=O)O)NC(=O)[C@@H](NC(=O)[C@H](CCCCN)NC(=O)[C@H](CCCCN)NC(=O)[C@H](Cc1ccccc1)NC(=O)[C@@H](NC(=O)[C@H](CCCCN)NC(=O)[C@H](Cc1c[nH]c2ccccc12)NC(=O)[C@@H](N)CCCNC(=N)N)[C@@H](C)CC)[C@@H](C)CC)C(C)C)C(C)C)C(=O)N[C@H](C(=O)N[C@@H](CCCCN)C(=O)N[C@@H](C)C(=O)NCC(=O)N1CCC[C@H]1C(=O)N[C@@H](C)C(=O)N[C@H](C(=O)N[C@@H](C)C(=O)N[C@H](C(=O)N[C@H](C(=O)NCC(=O)N[C@@H](CCC(N)=O)C(=O)N[C@@H](C)C(=O)N[C@@H](C)C(=O)N[C@H](C(=O)N[C@H](C(=O)N[C@H](C(=O)N[C@@H](CCCCN)C(N)=O)C(C)C)C(C)C)[C@@H](C)O)C(C)C)C(C)C)C(C)C)[C@@H](C)CC", "system": "KCCM 40203, Mueller-Hinton broth", "setting": "16 h, 37 °C", "how to read": "growth inhibition over 99%", "MIC": "2 µM"}
{"SMILES": "CN1C(=O)Cc2ccc(F)c(CCNC[C@H]3CN(c4ccc5c(n4)NC(=O)CO5)C(=O)O3)c21", "system": "ATCC 19606", "MIC": "0.03 µg/mL"}
{"SMILES": "CNC(C)C1CCC(N)C(OC2C(N)CC(N)C(OC3OCC(C)(O)C(NC)C3O)C2O)O1 (stereo not drawn)", "system": "carbapenem-resistant clinical isolate", "MIC": "> 8 µg/mL"}
{"SMILES": "CC[C@H](C)[C@H](NC(=O)CNC(=O)[C@H](CC(=O)O)NC(=O)[C@H](CCCNC(=N)N)NC(=O)[C@@H](NC(=O)[C@H](CC(N)=O)NC(=O)[C@H](C)NC(=O)CNC(=O)[C@@H](NC(=O)[C@H](CCCCN)NC(=O)[C@H](CCC(=O)O)NC(=O)[C@@H](NC(=O)[C@H](CCCCN)NC(=O)[C@H](CCCCN)NC(=O)[C@H](Cc1ccccc1)NC(=O)[C@@H](NC(=O)[C@H](CCCCN)NC(=O)[C@H](Cc1c[nH]c2ccccc12)NC(=O)[C@@H](N)CCCNC(=N)N)[C@@H](C)CC)[C@@H](C)CC)C(C)C)C(C)C)C(=O)N[C@H](C(=O)N[C@@H](CCCCN)C(=O)N[C@@H](C)C(=O)NCC(=O)N1CCC[C@H]1C(=O)N[C@@H](C)C(=O)N[C@H](C(=O)N[C@@H](C)C(=O)N[C@H](C(=O)N[C@H](C(=O)NCC(=O)N[C@@H](CCC(N)=O)C(=O)N[C@@H](C)C(=O)N[C@@H](C)C(=O)N[C@H](C(=O)N[C@H](C(=O)N[C@H](C(=O)N[C@@H](CCCCN)C(N)=O)C(C)C)C(C)C)[C@@H](C)O)C(C)C)C(C)C)C(C)C)[C@@H](C)CC", "system": "KCCM 40203, Mueller-Hinton broth", "setting": "16 h, 37 °C", "how to read": "growth inhibition over 99%", "MIC": "4 µM"}
{"SMILES": "CC(=O)N[C@@H](CCCCN)C(=O)N[C@@H](CCCCN)C(=O)N[C@@H](C)C(=O)N[C@@H](CC(C)C)C(=O)N[C@@H](CCCCN)C(=O)N[C@@H](CC(C)C)C(=O)N[C@@H](C)C(=O)N[C@@H](CCCCN)C(=O)N[C@@H](CCCCN)C(=O)N1CCC[C@H]1C(=O)N[C@@H](CC(C)C)C(=O)N[C@@H](CCCCN)C(=O)N[C@@H](CC(C)C)C(=O)N[C@@H](CC(C)C)C(=O)N[C@@H](CCCCN)C(N)=O", "assay": "broth microdilution", "system": "ATCC 17978", "setting": "18 h, 37 °C, compound alone", "MIC": "> 80 µM"}
{"SMILES": "CC[C@H](C)[C@H](NC(=O)[C@H](CC(C)C)NC(=O)[C@@H](NC(=O)[C@@H](NC(=O)[C@@H](NC(=O)[C@H](CCCNC(=N)N)NC(=O)[C@H](CCCNC(=N)N)NC(=O)[C@H](CCCNC(=N)N)NC(=O)[C@@H](N)CCCNC(=N)N)C(C)C)[C@@H](C)CC)[C@@H](C)CC)C(=O)N[C@H](C(=O)N[C@@H](CC(C)C)C(=O)N[C@@H](CCCNC(=N)N)C(=O)N[C@@H](CCCNC(=N)N)C(=O)N[C@@H](CCCNC(=N)N)C(=O)N[C@@H](CCCNC(=N)N)C(=O)N[C@@H](Cc1ccccc1)C(=O)N[C@@H](CO)C(=O)N[C@@H](C)C(=O)N[C@@H](Cc1ccc(O)cc1)C(N)=O)C(C)C", "assay": "broth microdilution", "system": "ATCC 17978", "setting": "highest value reported", "MIC": "8 µM"}
{"SMILES": "CS(=O)(=O)Nc1ncn(-c2cc(F)c(COc3ccc(OS(=O)(=O)F)cc3)c(F)c2)n1", "MIC": "25 µM"}
{"SMILES": "CC[C@H](C)CCCCC(=O)N[C@@H](CCN)C(=O)N[C@H](C(=O)N[C@@H](CCN)C(=O)N[C@H]1CCNC(=O)[C@H]([C@@H](C)O)NC(=O)[C@H](CCN)NC(=O)[C@H](CCN)NC(=O)[C@H](CC(C)C)NC(=O)[C@@H](CC(C)C)NC(=O)[C@H](CCN)NC1=O)[C@@H](C)O", "assay": "broth microdilution", "system": "BNCC 194496", "MIC": "0.25 µg/mL"}
{"SMILES": "CC[C@H](C)[C@H](NC(=O)[C@@H](NC(=O)[C@H](Cc1ccccc1)NC(=O)CNC(=O)[C@H](CCC(N)=O)NC(=O)[C@H](CCCCN)NC(=O)[C@H](C)N)C(C)C)C(=O)N[C@@H](Cc1ccc(O)cc1)C(=O)N[C@@H](CCCNC(=N)N)C(=O)N[C@H](C(=O)N[C@@H](CCCNC(=N)N)C(=O)N[C@H](C(=O)N[C@@H](CCCNC(=N)N)C(=O)N[C@@H](CCCNC(=N)N)C(=O)NCC(=O)N[C@@H](CC(N)=O)C(=O)N[C@@H](CCCNC(=N)N)C(=O)N[C@@H](CCCCN)C(N)=O)C(C)C)C(C)C", "assay": "broth dilution", "system": "ATCC 19606", "MIC": "6.3 µM"}
{"SMILES": "C[C@@H](O)[C@H]1C(=O)N2C(C(=O)O)=C(SCCN=CN)C[C@H]12", "system": "CCARM 12005 carbapenem-resistant, Mueller-Hinton broth", "setting": "16 h, 37 °C", "MIC": "128 µM"}
{"note": "A few entries again:"}
{"SMILES": "CC[C@H](C)[C@H](NC(=O)[C@H](CC(C)C)NC(=O)[C@H](CCCNC(=N)N)NC(=O)[C@@H](N)CCCNC(=N)N)C(=O)N[C@@H](CC(C)C)C(=O)N[C@H](C(=O)N[C@@H](CCCCN)C(=O)N[C@H](C(=O)NCC(=O)N1CCC[C@H]1C(=O)N[C@H](C(=O)N[C@H](C(=O)N[C@@H](Cc1ccc(O)cc1)C(=O)N[C@@H](CCCCN)C(=O)N[C@@H](Cc1ccc(O)cc1)C(=O)N[C@@H](Cc1ccccc1)C(=O)N[C@@H](CCCCN)C(=O)N[C@@H](CCCCN)C(=O)N[C@@H](CCC(N)=O)C(=O)N[C@@H](CC(C)C)C(=O)N[C@@H](CC(C)C)C(=O)N[C@@H](CCCCN)C(=O)N[C@@H](CC(C)C)C(N)=O)[C@@H](C)CC)[C@@H](C)CC)[C@@H](C)O)[C@@H](C)O", "system": "KCCM 40203, Mueller-Hinton broth", "setting": "24 h", "MIC": "2 µM"}
